{"data": "Measured values collected from several papers", "note": "± gives the spread as reported."}
{"SMILES": "C[C@@H](O)[C@@H]1NC(=O)[C@H](CCCCN)NC(=O)[C@@H](Cc2ccc(NC(N)=O)cc2)NC(=O)[C@H](Cc2ccc(NC(=O)[C@@H]3CC(=O)NC(=O)N3)cc2)NC(=O)[C@H](NC(=O)[C@H](Cc2ccc(Cl)cc2)NC(=O)CN2CCN(CC(=O)O)CCN(CC(=O)O)CCN(CC(=O)O)CC2)CSSC[C@@H](C(=O)N[C@H](Cc2ccc(O)cc2)C(N)=O)NC1=O [gallium-68 labelled]", "test": "PET/CT", "system": "neuroendocrine tumour patients, lesions, all sites", "setting": "60 min post-injection", "measurement": "median lesion SUVmax", "value": 13}
{"SMILES": "COC(=O)N[C@H]1CC[C@@H](Nc2cc(NCc3ccccc3F)n3ncc(C(C)C)c3n2)CC1", "test": "immunostaining", "system": "mice with HCT-116 xenograft", "setting": "dose not given, 48 h", "scale": "baseline: vehicle", "measurement": "Ki-67 staining decrease", "value": "1.3 fold"}
{"SMILES": "COc1cc2c(cc1OC)CC(=O)N(C[C@H]1CCCN(CCOc3ccc(F)cc3)C1)CC2", "system": "VTA dopamine neurons, stress-naive male mice", "setting": "intraperitoneal, 10 mg/kg", "scale": "baseline: baseline", "measurement": "burst firing (%SWB)", "value": "no effect"}
{"SMILES": "O=C1c2c(cc(O)c3c2oc2cc(O)c(O)cc23)OC1Cc1ccc(O)cc1 (stereo not shown)", "test": "ABTS scavenging, absorbance", "measurement": "EC50", "value": "1160 µM"}
{"SMILES": "COc1c2c(cc3oc(COC4OC(CO)C(O)C(O)C4O)cc(=O)c13)OC(C(C)(C)O)C2 (stereo not shown)", "test": "analgesic effect", "system": "mouse", "setting": "oral, 1 mg/kg, 1 h", "measurement": "hot plate latency", "value": "9.48 ± 1.4 s"}
{"SMILES": "CCCC[C@H](NC(=O)[C@@H](NC(=O)[C@H](CC(=O)O)NC(=O)[C@H](CCC(N)=O)NC(=O)[C@H](CC(C)C)NC(=O)[C@H](CC(C)C)NC(=O)[C@H](CCCN)NC(=O)[C@H](CCCNC(=N)N)NC(=O)[C@H](C)NC(=O)[C@H](CO)NC(=O)[C@H](CC(C)C)NC(=O)[C@H](CCC(N)=O)NC(=O)[C@H](CC)NC(=O)[C@H](CC(C)C)NC(=O)[C@@H](NC(=O)[C@H](CCCN)NC(=O)[C@H](CCCNC(=N)N)NC(=O)[C@H](Cc1ccc(O)cc1)NC(=O)[C@H](CO)NC(=O)[C@H](CC(N)=O)NC(=O)[C@@H](NC(=O)[C@H](Cc1ccccc1)NC(=O)[C@@H](NC(=O)[C@H](C)NC(=O)[C@H](CC(=O)O)NC(=O)[C@@H](C)NC(=O)[C@H](Cc1ccc(O)cc1)NC)[C@@H](C)CC)[C@@H](C)O)C(C)C)[C@@H](C)CC)C(=O)N[C@@H](CC(=O)O)C(=O)N[C@@H](CCCNC(=N)N)C(=O)NCC", "test": "GH release", "system": "rat, male, serum", "setting": "subcutaneous, 3 µg/kg, 15 min", "scale": "baseline: reference GHRH agonist JI-38", "measurement": "relative potency", "value": 1.13}
{"SMILES": "COc1cc(Cn2ccc3cc(C(=O)NCC45CC6CC(CC(C6)C4)C5)ccc32)ccc1C(=O)NO", "test": "immunohistochemistry", "system": "5xFAD mice, brain", "setting": "intraperitoneal, 10 mg/kg daily, 2 months", "scale": "baseline: vehicle", "measurement": "ASC burden", "value": "decreased"}
{"SMILES": "CCCC[C@H](NC(=O)[C@@H](NC(=O)[C@H](CC(=O)O)NC(=O)[C@H](CCC(N)=O)NC(=O)[C@H](CC(C)C)NC(=O)[C@H](CC(C)C)NC(=O)[C@H](CCCN)NC(=O)[C@H](CCCNC(=N)N)NC(=O)[C@H](C)NC(=O)[C@H](CO)NC(=O)[C@H](CC(C)C)NC(=O)[C@H](CCC(N)=O)NC(=O)[C@H](CC)NC(=O)[C@H](CC(C)C)NC(=O)[C@@H](NC(=O)[C@H](CCCN)NC(=O)[C@H](CCCNC(=N)N)NC(=O)[C@H](Cc1ccc(O)cc1)NC(=O)[C@H](CO)NC(=O)[C@H](CCC(N)=O)NC(=O)[C@@H](NC(=O)[C@H](Cc1c(F)c(F)c(F)c(F)c1F)NC(=O)[C@@H](NC(=O)[C@H](C)NC(=O)[C@H](CC(=O)O)NC(=O)[C@@H](C)NC(=O)[C@H](Cc1ccc(O)cc1)NC)[C@@H](C)CC)[C@@H](C)O)C(C)C)[C@@H](C)CC)C(=O)N[C@@H](CC(=O)O)C(=O)N[C@@H](CCCNC(=N)N)C(=O)NC", "test": "GH release", "system": "male rat, serum", "setting": "subcutaneous, dose not given, 15 min", "scale": "baseline: GHRH(1-29)NH2", "measurement": "relative potency", "value": 97.1}
{"SMILES": "COc1ccc2c(c1OC)C(C(Cl)(Cl)Cl)N1CCc3cc4c(cc3C1=C2)OCO4 (stereo not shown)", "system": "rat, STZ-induced diabetic, serum", "setting": "oral, 12 mg/kg, day 28", "measurement": "ALP activity", "value": "139 ± 3.97 U/L"}
{"SMILES": "CC1=C(C2=C(C)C(=O)c3c(cc(O)c(O)c3Cc3ccccc3)C2=O)C(=O)c2cc(O)c(O)c(Cc3ccccc3)c2C1=O (single isomer, unassigned)", "test": "spleen shrinkage", "system": "B6 Bcl-2-transgenic mice", "setting": "ip, 5 µmol/kg", "scale": "baseline: maximum 50%", "measurement": "maximal activity", "value": "~54%"}
{"note": "For quick reference, copied from above:"}
{"SMILES": "CC1=C(C2=C(C)C(=O)c3c(cc(O)c(O)c3Cc3ccccc3)C2=O)C(=O)c2cc(O)c(O)c(Cc3ccccc3)c2C1=O (single isomer, unassigned)", "test": "spleen shrinkage", "system": "B6 Bcl-2-transgenic mice", "setting": "ip, 5 µmol/kg", "scale": "baseline: maximum 50%", "measurement": "maximal activity", "value": "~54%"}
